# Measured values gathered from unrelated publications.
# Protocols differ between the studies behind these lines. pIC50: −log10 of the molar value.
# Cell line: SK-OV-3
# Observed: cell growth or viability
Structure (SMILES),method,time,endpoint,value
C=CC[P](c1ccccc1)(c1ccccc1)[Pt]([S]c1nc2ccccc2[nH]1)([S]c1nc2ccccc2[nH]1)[P](CC=C)(c1ccccc1)c1ccccc1,MTT,,pIC50,4.66
COC(=O)CC[C@@H](NC(=O)[C@@H](Cc1ccc(OP(=O)(O)O)cc1)NC(=O)[C@@H](Cc1ccccc1)NC(=O)[C@@H](Cc1ccccc1)NC(=O)Cc1ccc2ccccc2c1)C(=O)OC,,,pIC50,< 3.70
C[C@H]1C(OCCCC[P+](c2ccccc2)(c2ccccc2)c2ccccc2)O[C@@H]2O[C@@]3(C)CCC4[C@H](C)CCC1[C@]42OO3 (some centres unmarked),MTT,72 h,pIC50,6.72
O=C(Cc1ccc2ccccc2c1)N[C@H](Cc1ccccc1)C(=O)N[C@H](Cc1ccc(O)cc1)C(=O)N[C@H](Cc1ccccc1)C(=O)N[C@H](Cc1ccc(O)cc1)C(=O)O,MTT,,IC50,> 500 µg/mL
C=CC[P](c1ccccc1)(c1ccccc1)[Pt]([S]c1ccccn1)([S]c1ccccn1)[P](CC=C)(c1ccccc1)c1ccccc1,MTT,,pIC50,5.21
O=C(Cc1ccc2ccccc2c1)N[C@H](Cc1ccccc1)C(=O)N[C@H](Cc1ccccc1)C(=O)N[C@H](Cc1ccc(O)cc1)C(=O)N[C@H](Cc1ccc(OP(=O)(O)O)cc1)C(=O)O,MTT,,IC50,283 µg/mL
C[C@H]1C(OCCCCCCCC[P+](c2ccccc2)(c2ccccc2)c2ccccc2)O[C@@H]2O[C@@]3(C)CCC4[C@H](C)CCC1[C@]42OO3 (some centres unmarked),MTT,72 h,pIC50,7.13
O=C1[O][Pt]2([OH])([OH])([NH]C3CCCCC3[NH]2)[O]C1=O (centres unmarked),resazurin,72 h,pIC50,< 4.00
C=CC[P](c1ccccc1)(c1ccccc1)[Pt]([S]c1ncccn1)([S]c1ncccn1)[P](CC=C)(c1ccccc1)c1ccccc1,MTT,,pIC50,4.91
C[C@@H]1CCC2[C@@H](C)[C@@H](OCCC[P+](c3ccccc3)(c3ccccc3)c3ccccc3)O[C@@H]3O[C@@]4(C)CCC1[C@@]23OO4 (some centres unmarked),MTT,72 h,pIC50,6.82
N.N.O=C([O][Pt]([Cl])([Cl])[O]C(=O)c1ccc(P(c2ccccc2)c2ccccc2)cc1)c1ccc(P(c2ccccc2)c2ccccc2)cc1.[Cl][Au].[Cl][Au],resazurin,72 h,pIC50,5.10
O=C(Cc1ccc2ccccc2c1)N[C@H](Cc1ccc(O)cc1)C(=O)N[C@H](Cc1ccccc1)C(=O)N[C@H](Cc1ccccc1)C(=O)N[C@H](Cc1ccc(OP(=O)(O)O)cc1)C(=O)O,MTT,,IC50,372 µg/mL
C[C@H]1C(OCCCCCCCCC[P+](c2ccccc2)(c2ccccc2)c2ccccc2)O[C@@H]2O[C@@]3(C)CCC4[C@H](C)CCC1[C@]42OO3 (some centres unmarked),MTT,72 h,pIC50,6.99
N.N.O=C([O][Pt]([OH])([Cl])[Cl])c1ccc(P(c2ccccc2)c2ccccc2)cc1.[Cl][Au],resazurin,72 h,pIC50,4.84

# For quick reference, copied from above:
Structure (SMILES),method,time,endpoint,value
C[C@H]1C(OCCCCCCCC[P+](c2ccccc2)(c2ccccc2)c2ccccc2)O[C@@H]2O[C@@]3(C)CCC4[C@H](C)CCC1[C@]42OO3 (some centres unmarked),MTT,72 h,pIC50,7.13
C=CC[P](c1ccccc1)(c1ccccc1)[Pt]([S]c1ncccn1)([S]c1ncccn1)[P](CC=C)(c1ccccc1)c1ccccc1,MTT,,pIC50,4.91
